{"data": "Experimental data from different studies", "note": "Compare with care: the assays were run in different laboratories. ± gives the spread as reported."}
{"SMILES": "O=c1nc(NO)ccn1[C@@H]1O[C@H](CO)[C@@H](O)[C@H]1O", "assay": "Western blot, item: CYP2B6", "test system": "rat, normal, liver", "setting": "oral, 80 mg/kg twice daily, 5 days", "how to read": "reference: control group", "measurement": "protein level", "result": "1.5 fold"}
{"SMILES": "N=C(N)NCCC[C@@H]1NC(=O)[C@H](Cc2c[nH]c3ccccc23)NC(=O)[C@@H](CC2CCCCC2)NC(=O)[C@@H]2CCCN2C(=O)[C@@H](NC(=O)CCc2ccccc2)CCCNC1=O", "test system": "C57BL/6J mouse, plasma plasma", "setting": "intravenous, 1 mg/kg single dose", "measurement": "MRT(0-inf)", "result": "37 min"}
{"SMILES": "CCCC(CCC)NC(=O)c1ccc(O)c(O)c1", "test system": "female Sprague-Dawley rat, plasma", "setting": "oral, 50 mg/kg of parent drug", "measurement": "Tmax", "result": "18.6 min"}
{"SMILES": "CC[C@@H](C)[C@@H](NC(=O)[C@@H](C)NC(=O)[C@@H](CCCCN)NC(=O)[C@@H](CC(C)C)NC(=O)[C@@H](C)NC(=O)[C@H](NC(=O)[C@@H](CCCCN)NC(=O)[C@@H](CC(C)C)NC(=O)[C@H](NC(=O)[C@@H](CCCCN)NC(=O)[C@@H](CCCCN)NC(=O)[C@@H](CCCCN)NC(=O)[C@@H](C)NC(=O)[C@@H](CCCCN)NC(=O)[C@@H](CO)NC(=O)[C@@H](Cc1ccccc1)NC(=O)[C@H](NC(=O)[C@@H](CCCCN)NC(=O)[C@@H](CC(C)C)NC(=O)[C@@H](Cc1ccccc1)NC(=O)[C@@H](CO)NC(=O)[C@@H](CCCCN)NC(=O)[C@@H](Cc1c[nH]c2ccccc12)NC(=O)[C@@H](CCCCN)NC(C)=O)[C@H](C)O)C(C)C)[C@H](C)O)C(=O)N[C@H](CO)C(=O)N[C@H](CCCCN)C(N)=O", "assay": "RP-HPLC temperature profiling", "setting": "pH 2, 5-80 °C, unit not given", "how to read": "reference: control peptide", "measurement": "self-association parameter", "result": 3.31}
{"SMILES": "CC(C)(Sc1ccncc1-c1ccc(C#N)c2ccccc12)C(=O)OC1OC(C(=O)O)C(O)C(O)C1O (stereo not drawn)", "test system": "adult men, plasma", "setting": "oral, 15 mg verinurad, severe renal impairment", "how to read": "reference: normal renal function", "measurement": "Cmax increase", "result": "253%"}
{"SMILES": "Cc1cn(-c2ccc(-c3cc(C)c(N[C@@H](C)c4ccc(F)cc4)nn3)nc2O[11CH3])cn1", "test system": "rhesus macaque, male, arterial plasma", "setting": "intravenous, 2 mCi, 60 min", "measurement": "parent compound in plasma", "result": "~60%"}
{"SMILES": "Cn1c(=O)oc2ccc(-c3ccc(CC(C#N)NC(=O)C4CNCCCO4)c(F)c3)cc21 (stereo not drawn)", "test system": "human", "setting": "oral, 10 mg once daily, treatment-related AE, multiple ascending dose", "measurement": "lymphadenopathy incidence", "result": "0%"}
{"SMILES": "CCCC[C@H](NC(=O)CNC(=O)CNC(=O)CN1CCN(CC(=O)O)CCN(CC(=O)O)CC1)C(=O)N[C@H]1CC(=O)NCCCC[C@@H](C(N)=O)NC(=O)[C@H](Cc2c[nH]c3ccccc23)NC(=O)[C@H](CCCNC(=N)N)NC(=O)[C@@H](Cc2ccccc2)NC(=O)[C@H](Cc2c[nH]cn2)NC1=O [gallium-67 labelled]", "test system": "female C57 mice, B16/F1 melanoma", "setting": "intravenous, 0.037 MBq, 2 h", "how to read": "reference: tumour over lung", "measurement": "tumour to tissue ratio", "result": 46.4}
{"SMILES": "O=C(NCCCN(CCCCN(CCCNC(=O)c1cccc(=O)n1[O-])C(=O)c1cccc(=O)n1[O-])C(=O)c1cccc(=O)n1[O-])c1cccc(=O)n1[O-].[89Zr+4]", "assay": "radio-TLC", "test system": "PBS", "setting": "5 d, pH 7.4, 37 °C, added: Zn^2+ 10-fold excess", "measurement": "intact complex", "result": "97.7 ± 3.3%"}
{"note": "Excerpt of the above:"}
{"SMILES": "Cn1c(=O)oc2ccc(-c3ccc(CC(C#N)NC(=O)C4CNCCCO4)c(F)c3)cc21 (stereo not drawn)", "test system": "human", "setting": "oral, 10 mg once daily, treatment-related AE, multiple ascending dose", "measurement": "lymphadenopathy incidence", "result": "0%"}
